Results of several laboratories.
Protocols differ between the studies behind these lines. “And” joins repeats or separate records; there may be more than shown. Numbers after ± are the reported error.

| Structure (SMILES) | assay | test system | setting | scale | quantity | value |
| --- | --- | --- | --- | --- | --- | --- |
| CC(C(=O)O)n1nc(Cn2cc3cc(OCC[18F])c(Cl)cc3n2)c2ccccc2c1=O (racemic) |  | Sprague-Dawley rat male, fat | 60 min |  | tissue uptake | 0.03 ± 0.02 %ID/g |
| CC[C@H](C)[C@@H]1NC(=O)[C@H](Cc2ccc(O)cc2)NC(=O)CCCSC[C@@H](C(=O)N(CC(=O)N[C@@H](CC(C)C)C(=O)NCC(N)=O)Cc2ccc(F)cc2)NC(=O)[C@H](CC(N)=O)NC(=O)[C@H](CCC(N)=O)NC1=O |  | human | intranasal, 15 µg single dose |  | serious adverse events | 0% |
| C=CC(=O)Nc1cc(Nc2nccc(-c3cn(C)c4ccccc34)n2)c(OC)cc1N(C)CCNC |  | human, plasma | 10 d, on ice, high QC level |  | remaining compound | 59.7% |
| O=C([O-])CN1CCN(CC(=O)[O-])CCN(C(CO)C(O)CO)CCN(CC(=O)[O-])CC1.[Dy+3] (stereo not drawn) | ICP-MS | cynomolgus monkey, feces | 2 days post-injection | reference: dose | cumulative fecal excretion | 0.2% |
| CC(=O)N([O-])CCCCCNC(=O)CCC(=O)N([O-])CCCCCNC(=O)CCC(=O)N([O-])CCCCCN.[89Zr+4] |  | mouse, bone | 1 h |  | tracer uptake | 0.09 %ID/g |
| C=Cc1c(C)c2cc3nc(c(CC(=O)O)c4[nH]c(cc5nc(cc1[nH]2)C(C)=C5CC)c(C)c4C(=O)O)[C@@H](CCC(=O)OCCOCCOCCOC)[C@@H]3C | LC-MS | methanol-water 9:1 | 1 h, pH 8.0 |  | compound loss | 18% |
| N=C(N)NCCC[C@@H]1NC(=O)[C@H](CO)NC(=O)[C@@H](NC(=O)[C@H](CO)NC(=O)[C@H](CO)NC(=O)[C@H](Cc2c[nH]c3ccccc23)NC(=O)CNC(=O)[C@H](CO)NC(=O)[C@@H](N)Cc2c[nH]c3ccccc23)CSSC[C@@H](C(=O)NCC(=O)O)NC(=O)[C@H](CO)NC1=O |  | patients, plasma | intravenous, 5 mg/kg, thrice weekly, geometric mean |  | volume of distribution (Vz) | 541 L |
| Cc1cc(C)n(CCN(CCN)CCCCCCNC(=O)[C@@H](N)Cc2c[nH]cn2)n1.[99Tc+].[C-]#[O+].[C-]#[O+].[C-]#[O+] |  | BALB/c nude mice A549 xenograft | intravenous, 15 min | reference: tumour over bone | tumour-to-tissue ratio | 7 |
| C=C(NC(=O)c1csc(-c2nc3c(cc2O)-c2nc(cs2)C(=O)NC(C(C)O)C(=O)NC(=C(C)OC)c2nc(cs2)C(=O)NC2c4nc(cs4)C(=O)NC(COC(=O)c4c5c6c(cccc6n4O)COC(=O)C(OC4CC(C)(O)C(N(C)C)C(C)O4)C2OC5)c2nc-3cs2)n1)C(N)=O (stereo not drawn) |  | cynomolgus monkey, both sexes, plasma | intravenous infusion, 1.5 mg/kg twice daily, 6 to 12 h, second dose |  | Tmax | 0.18 ± 0.16 h |
| COC(=O)[C@@]1(C(C)C)C=C(C(=O)Nc2cccc(C(=O)Nc3ccc(Nc4nccc(-c5cccnc5)n4)c(C)c3)c2)C(=O)CC1 |  | rat, plasma | 1 µM, 120 min |  | compound remaining | 71.2% |
| O=C(OC(C(F)(F)F)C(F)(F)F)N1CCC(CNS(=O)(=O)c2ccc(Cl)cc2)CC1 |  | CB17 SCID mice, male, brain | oral, 30 mg/kg |  | Tlast | 24 h |
| CCCCN1C(=O)c2cccc3c(NCCCN4CCOCC4)ccc(c23)C1=O |  | toluene |  |  | fluorescence quantum yield | 0.52 |
| COc1cccc(OC)c1-c1cc(C(=O)NC2(C(=O)O)C3CC4CC(C3)CC2C4)nn1-c1ccc(C(=O)N(C)CCOCCOCCN(C)C(=O)[C@H](CCCCNC(=O)[C@H](CC(C)C)NC(=O)C2OC2C(=O)O)NC(=O)CN2CCN(CC(=O)[O-])CCN(CC(=O)[O-])CCN(CC(=O)[O-])CC2)cc1C(C)C.[177Lu+3] (mixture of isomers) |  | mouse, HT-29 xenograft, brain | 24 h post injection |  | tissue uptake | 0.03 %ID/g |
| C=CC(=O)Nc1cc(Nc2nccc(-c3c[nH]c4ccccc34)n2)c(OC)cc1N(C)CCN(C)C | storage stability | human plasma | 10 d, on ice, LLOQ level |  | recovery | 54% |
| C[C@H](CCC(=O)NCC(=O)O)[C@H]1CC[C@H]2[C@@H]3[C@H](O)C[C@@H]4C[C@H](OS(=O)(=O)O)CC[C@]4(C)[C@H]3CC[C@]12C |  | human, plasma | control |  | Cmin | 35.3 ± 5.7 nM |
| C=CC(=O)Nc1cc(Nc2nccc(-c3cn(C4CC4)c4ccccc34)n2)c(OC)cc1N(C)CCNC | bench-top stability | rat plasma | 1 ng/mL, 3 h, room temperature | reference: nominal concentration | relative error | -9.6% |
| [18F]CCn1cc(COc2ccc(-c3nncnn3)cc2)nn1 |  | BALB/c nude mouse, LS174T xenograft | intravenous, dose not given, 1 h, with: CC49-TCO pretargeting |  | tumour to control tumour ratio | 0.9 |
| CC(C)[C@H](NC(=O)[C@H](Cc1c[nH]c2ccccc12)NC(=O)[C@H](CCCNC(=N)N)NC(=O)[C@H](CCCNC(=N)N)NC(=O)[C@@H](NC(=O)[C@@H](NC(=O)[C@H](CCCNC(=N)N)NC(=O)[C@@H](NC(=O)[C@@H](NC(=O)[C@H](CCCNC(=N)N)NC(=O)[C@H](CCCNC(=N)N)NC(=O)[C@@H](NC(=O)[C@H](Cc1c[nH]c2ccccc12)NC(=O)[C@H](CCCNC(=N)N)NC(=O)[C@H](CCCNC(=N)N)NC(=O)[C@@H](NC(=O)[C@H](CCCNC(=N)N)NC(=O)[C@H](CCCNC(=N)N)NC(=O)[C@@H](NC(=O)[C@H](Cc1c[nH]c2ccccc12)NC(=O)[C@H](CCCNC(=N)N)NC(=O)[C@@H](N)CCCNC(=N)N)C(C)C)C(C)C)C(C)C)C(C)C)C(C)C)C(C)C)C(C)C)C(=O)N[C@@H](CCCNC(=N)N)C(=O)N[C@@H](CCCNC(=N)N)C(=O)O | dipstick | CD1 mouse, urine | intravenous, 15 mg/kg, 16 h, [14C]-labelled compound |  | urine pH | 6 |
| CN1CCC[C@]1(C)/C=C/S(=O)(=O)NC(=O)Nc1c2c(cc3c1CCC3)CCC2 | item: blood triglycerides increased, not related | human | oral, 100 mg twice daily, 14 days, multiple ascending dose |  | subjects with adverse event | 16.7% |
| COc1ccnc(C(=O)N[C@H]2COC(=O)[C@H](Cc3ccccc3)[C@@H](OC(=O)C(C)C)[C@H](C)OC2=O)c1O |  | silt loam soil | organic carbon 1.0 %, pH 5.5 |  | organic carbon-normalised Kf (KFoc) | 2150 mL/g |
| Cc1noc(C)c1Cn1cc(N2C(=O)CN(Cc3cccc(O[C@@H]4O[C@H](C(=O)O)[C@@H](O)[C@H](O)[C@H]4O)c3)C2=O)cn1 |  | rat Sprague-Dawley male, plasma | intravenous, 1 mg/kg of parent drug, 0.25 h |  | plasma concentration | 144 ng/mL |

| Structure (SMILES) | assay | test system | setting | scale | quantity | value |
| --- | --- | --- | --- | --- | --- | --- |
| CC(=O)N[C@H](CC(=O)O)C(=O)N[C@H](Cc1c[nH]c2ccccc12)C(=O)N[C@H](Cc1ccccc1)C(=O)N[C@H](CCCCN)C(=O)N[C@H](C)C(=O)N[C@H](Cc1ccccc1)C(=O)N[C@H](Cc1ccc(O)cc1)C(=O)N[C@H](CC(=O)O)C(=O)N[C@H](CCCCN)C(=O)N[C@@H](C(=O)N[C@H](C)C(=O)N[C@H](CCC(=O)O)C(=O)N[C@H](CCCCN)C(=O)N[C@H](Cc1ccccc1)C(=O)N[C@H](CCCCN)C(=O)N[C@H](CCC(=O)O)C(=O)N[C@H](C)C(=O)N[C@H](Cc1ccccc1)C(N)=O)C(C)C |  | human, plasma | oral, dose not given, 0.5 h post-dose, day 13 |  | plasma concentration | 110 ng/mL |
| CN([O-])C(=O)CN1CCN(CC(=O)N(C)[O-])CCN(Cc2ccccn2)CC1.[89Zr+4] |  | mouse, pancreas | intravenous, 24 h |  | tracer uptake | 0.28 %ID/g |
| COc1cccc(OC)c1-c1cc(C(=O)NC2(C(=O)O)C3CC4CC(C3)CC2C4)nn1-c1ccc(C(=O)N(C)CCOCCN(C)C(=O)[C@H](CCCCNC(=O)[C@H](CC(C)C)NC(=O)C2OC2C(=O)O)NC(=O)CN2CCN(CC(=O)[O-])CCN(CC(=O)[O-])CCN(CC(=O)[O-])CC2)cc1C(C)C.[177Lu+3] (mixture of isomers) |  | mouse, HT-29 xenograft, lung | 24 h post injection |  | tissue uptake | 2.1 %ID/g |
| O=C(c1ccccc1)N1C(c2ccc(OCC3CCN(CCCF)C3)cc2)c2ccc(O)cc2CC12CC2 (stereo not drawn) |  | C57BL/6J mouse, plasma | oral, 25 mg/kg |  | MRT(0-inf) | 2.99 h and 4.48 h |
| CC(C)C[C@H](NC(=O)[C@@H](CCCCNC(=O)[C@@H](Cc1ccccc1)NC(=O)CCCCCCCNC(=O)CN1CCN(CC(=O)O)CCN(CC(=O)O)CCN(CC(=O)O)CC1)NC(=O)[C@H](Cc1ccc(O)cc1)NC(=O)[C@H](CO)NC(=O)[C@H](Cc1c[nH]c2ccccc12)NC(=O)[C@H](Cc1c[nH]cn1)NC(=O)[C@@H]1CCC(=O)N1)C(=O)N[C@@H](CCCNC(=N)N)C(=O)N1CCC[C@H]1C(=O)NCC(N)=O [indium-111 labelled] |  | male athymic nude mice, DU-145 prostate cancer xenograft, tumour | intravenous, 0.037 MBq, 4 h | reference: tumour over muscle | tumour-to-tissue ratio | 2.13 |
| O=C(Nc1cnccc1-c1ccc([18F])nc1)c1ccnc(NC(=O)C2CC2)c1 |  | mice, transgenic, GSK-3β, early-stage, bone | intravenous, dose not given, 120 min, with: tariquidar 15 mg/kg i.v. pre-dose |  | SUV | 0.224 |
| Cc1cc(-c2ccc(C(=O)[C@@H]3CCCC[C@H]3C(=O)Nc3cnn4c3C(=O)NCC4)cc2)[nH]n1 |  | human, faeces | oral, 200 mg, 0-216 h | reference: dose | cumulative recovery of radioactivity | 78.8% |
| CS(=O)(=O)c1cc(Cl)cc(-c2cc(Cl)c(Cl)cc2Cl)c1Cl |  | cow whole milk | 100 nM | reference: milk fat over skim milk | milk fat partition ratio | 241 |
| CCCC[C@H](NC(=O)CNC(=O)CNC(=O)[C@H](CCCCNC(=O)C(C)c1ccc(CC(C)C)cc1)NC(=O)CN1CCN(CC(=O)O)CCN(CC(=O)O)CCN(CC(=O)O)CC1)C(=O)N[C@H]1CC(=O)NCCCC[C@@H](C(N)=O)NC(=O)[C@H](Cc2c[nH]c3ccccc23)NC(=O)[C@H](CCCNC(=N)N)NC(=O)[C@@H](Cc2ccccc2)NC(=O)[C@H](Cc2c[nH]cn2)NC1=O (stereo partly drawn) [lutetium-177 labelled] |  | C57 mice, tumour | 2 h | reference: blood | tumour-to-tissue ratio | 10.9 |
| CC(C)(F)CC(NC(c1ccc(-c2ccc(S(C)(=O)=O)cc2)cc1)C(F)(F)F)C(=O)NCC#CBr (stereo not drawn) |  | PBS | 100 µM, 23 h, pH 8, 37 °C, with: cysteine 10 mM |  | cysteine adduct formation | 17% |
| O=C(O)CCCOc1ccc([18F])cc1-c1cc(-c2ccccc2C(F)(F)F)n(-c2ccccc2)n1 | OLINDA/EXM from mouse data | human adults, spleen |  |  | absorbed dose | 8.45 µGy/MBq |
| CC(C)OCCOCc1ccc(OCC(O)CN(N=O)C(C)C)cc1 (stereo not drawn) | duplex sequencing, item: mutation frequency | NMRI mouse, liver | oral, 845 mg/kg/day, 4 weeks | reference: vehicle | fold change | 4.17 |
| O=C(Nc1cnccc1-c1ccc([18F])cc1)c1ccnc(NC(=O)C2CC2)c1 |  | FVB/NJ mice (both sexes), heart | intravenous, dose not given, 120 min |  | SUV | 0.17 |
| [Cl-].[Cl-].[Ru+2].c1ccc(-c2cccc(-c3ccccn3)n2)nc1.c1ccc2nc(-c3ccc4ccccc4n3)ccc2c1 | C18 HPLC retention time | water | 100 µM | reference: standards of known log P | relative log P | 1.21 |
| CC(C)(O)c1ncc([S@](N)(=O)=NC(=O)Nc2c3c(cc4c2CCC4)CCC3)s1 | item: Gastrointestinal disorders | healthy human volunteers | oral, 25 mg twice daily, 14 days, enteric-coated tablet |  | subjects with adverse events | 13% |
| CCCCc1cnc(SCC(=O)c2ccc(S(N)(=O)=O)c(Cl)c2)nc1 |  |  | sulfonamide group |  | pKa | 8.9 |
| Cc1nn(-c2nc3c(F)cc(F)cc3s2)c(O)c1C(c1ccc(C(F)(F)F)cc1)c1c(C)nn(-c2nc3c(F)cc(F)cc3s2)c1O |  | ICR mouse, plasma | intraperitoneal, 10 mg/kg |  | AUMC(0-inf) observed | 205000 h²·ng/mL and 361000 h²·ng/mL and 307000 h²·ng/mL |
| C=CC(=O)N1CCCC(n2c(=O)c3ncccc3n(Cc3ccc(Oc4ccccc4)cc3)c2=O)C1 (stereo not drawn) |  | male BALB/c mouse, plasma | oral, 200 mg/kg, 15 min |  | concentration | 27600 ng/mL |
| [123I]c1ccc2nc(-c3ccc(-n4ccnn4)nc3)cn2c1 |  | male Wistar rat, spleen | intravenous, 4 MBq, 6 h |  | tracer uptake | 0.062 %ID/g |
| COCC1CN(C2CCN(c3cc(OC)c(Nc4ncc(Br)c(Nc5ccc6c(c5P(C)(C)=O)OCCO6)n4)cc3C)CC2)C1 | first-in-human trial | human | oral, 240 mg once daily | treatment-related | serious adverse events | 75% |
| O=C(NS(=O)(=O)c1cccs1)c1cc2ccccc2n1Cc1ccc(Br)c2ccccc12 |  | mouse, plasma | oral, 1 mg/kg |  | MRT(0-inf) | 1.09 h |
